Experimental data collected from several papers.
Each numbered part is a random draw from the data of one study; scales do not carry over between parts.
Sequence of UniProt P0C1S8 (whole entry, looked up): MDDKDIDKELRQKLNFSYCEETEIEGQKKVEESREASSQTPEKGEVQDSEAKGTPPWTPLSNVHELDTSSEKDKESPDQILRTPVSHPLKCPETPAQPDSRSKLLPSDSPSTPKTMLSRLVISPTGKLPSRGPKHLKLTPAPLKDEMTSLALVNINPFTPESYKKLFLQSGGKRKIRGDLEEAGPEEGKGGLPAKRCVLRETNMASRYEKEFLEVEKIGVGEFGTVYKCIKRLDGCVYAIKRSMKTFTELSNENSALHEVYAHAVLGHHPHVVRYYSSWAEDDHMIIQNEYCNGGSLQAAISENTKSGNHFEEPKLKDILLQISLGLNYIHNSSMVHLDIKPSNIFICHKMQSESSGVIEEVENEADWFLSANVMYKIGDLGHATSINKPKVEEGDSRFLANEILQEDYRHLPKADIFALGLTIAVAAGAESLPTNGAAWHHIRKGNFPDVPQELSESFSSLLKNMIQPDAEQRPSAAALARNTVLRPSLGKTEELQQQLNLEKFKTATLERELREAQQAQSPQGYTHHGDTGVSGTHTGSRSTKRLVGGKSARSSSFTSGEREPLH
Sequence of UniProt Q13237 (whole entry, looked up): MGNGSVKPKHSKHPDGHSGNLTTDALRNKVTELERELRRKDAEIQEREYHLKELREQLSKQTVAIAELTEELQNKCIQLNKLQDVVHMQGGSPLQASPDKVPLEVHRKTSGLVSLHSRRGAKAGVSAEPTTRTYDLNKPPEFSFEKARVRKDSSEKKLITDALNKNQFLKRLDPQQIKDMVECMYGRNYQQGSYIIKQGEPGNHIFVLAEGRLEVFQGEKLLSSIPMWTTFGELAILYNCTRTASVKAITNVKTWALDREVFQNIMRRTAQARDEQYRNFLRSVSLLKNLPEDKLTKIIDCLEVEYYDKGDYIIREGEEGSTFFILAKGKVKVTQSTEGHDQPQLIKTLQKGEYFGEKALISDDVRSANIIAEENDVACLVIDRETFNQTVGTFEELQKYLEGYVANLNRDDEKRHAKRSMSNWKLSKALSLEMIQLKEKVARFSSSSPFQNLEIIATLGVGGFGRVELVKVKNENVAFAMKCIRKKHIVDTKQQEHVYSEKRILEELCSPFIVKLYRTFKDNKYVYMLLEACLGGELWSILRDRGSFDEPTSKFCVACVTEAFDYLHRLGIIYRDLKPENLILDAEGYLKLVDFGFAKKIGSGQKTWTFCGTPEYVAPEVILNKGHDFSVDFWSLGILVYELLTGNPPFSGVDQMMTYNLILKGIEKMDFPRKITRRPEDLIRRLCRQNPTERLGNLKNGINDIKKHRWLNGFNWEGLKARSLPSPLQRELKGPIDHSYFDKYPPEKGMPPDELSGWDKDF
Sequence of UniProt P57078 (whole entry, looked up): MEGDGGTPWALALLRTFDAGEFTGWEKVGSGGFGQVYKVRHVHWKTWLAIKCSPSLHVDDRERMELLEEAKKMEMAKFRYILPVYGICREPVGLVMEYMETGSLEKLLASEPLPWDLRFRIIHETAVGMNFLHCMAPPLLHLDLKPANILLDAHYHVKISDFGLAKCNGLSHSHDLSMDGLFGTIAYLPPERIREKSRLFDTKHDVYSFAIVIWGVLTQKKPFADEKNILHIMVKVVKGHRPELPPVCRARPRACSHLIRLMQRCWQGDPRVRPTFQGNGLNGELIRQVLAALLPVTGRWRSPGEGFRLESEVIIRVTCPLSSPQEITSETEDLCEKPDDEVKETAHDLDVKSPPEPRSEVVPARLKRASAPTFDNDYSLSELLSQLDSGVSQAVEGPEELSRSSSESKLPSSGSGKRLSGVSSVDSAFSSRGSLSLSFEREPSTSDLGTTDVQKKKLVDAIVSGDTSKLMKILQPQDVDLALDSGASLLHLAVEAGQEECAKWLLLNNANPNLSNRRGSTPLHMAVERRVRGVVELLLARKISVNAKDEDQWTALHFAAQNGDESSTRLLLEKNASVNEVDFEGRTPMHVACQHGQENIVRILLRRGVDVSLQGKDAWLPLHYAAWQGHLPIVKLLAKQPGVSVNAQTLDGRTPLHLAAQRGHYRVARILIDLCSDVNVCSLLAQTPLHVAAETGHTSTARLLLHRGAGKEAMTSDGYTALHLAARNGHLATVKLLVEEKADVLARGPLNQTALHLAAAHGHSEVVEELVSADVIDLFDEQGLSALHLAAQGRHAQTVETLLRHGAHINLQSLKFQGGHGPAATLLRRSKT
Sequence of UniProt P19525 (whole entry, looked up): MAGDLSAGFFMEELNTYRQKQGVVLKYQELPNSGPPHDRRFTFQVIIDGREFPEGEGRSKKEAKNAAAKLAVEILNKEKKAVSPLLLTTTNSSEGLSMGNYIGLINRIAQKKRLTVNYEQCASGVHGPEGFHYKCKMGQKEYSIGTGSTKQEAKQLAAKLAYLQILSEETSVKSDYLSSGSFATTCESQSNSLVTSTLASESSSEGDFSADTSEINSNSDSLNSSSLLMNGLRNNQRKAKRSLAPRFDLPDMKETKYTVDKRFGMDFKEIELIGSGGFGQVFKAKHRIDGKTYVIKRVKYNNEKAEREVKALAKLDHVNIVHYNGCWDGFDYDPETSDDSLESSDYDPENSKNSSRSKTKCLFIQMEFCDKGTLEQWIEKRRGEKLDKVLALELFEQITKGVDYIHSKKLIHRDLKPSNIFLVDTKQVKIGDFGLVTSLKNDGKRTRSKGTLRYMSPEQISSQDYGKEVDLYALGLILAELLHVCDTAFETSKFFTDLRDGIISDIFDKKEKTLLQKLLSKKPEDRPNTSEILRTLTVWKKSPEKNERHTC
Sequence of UniProt P51812 (whole entry, looked up): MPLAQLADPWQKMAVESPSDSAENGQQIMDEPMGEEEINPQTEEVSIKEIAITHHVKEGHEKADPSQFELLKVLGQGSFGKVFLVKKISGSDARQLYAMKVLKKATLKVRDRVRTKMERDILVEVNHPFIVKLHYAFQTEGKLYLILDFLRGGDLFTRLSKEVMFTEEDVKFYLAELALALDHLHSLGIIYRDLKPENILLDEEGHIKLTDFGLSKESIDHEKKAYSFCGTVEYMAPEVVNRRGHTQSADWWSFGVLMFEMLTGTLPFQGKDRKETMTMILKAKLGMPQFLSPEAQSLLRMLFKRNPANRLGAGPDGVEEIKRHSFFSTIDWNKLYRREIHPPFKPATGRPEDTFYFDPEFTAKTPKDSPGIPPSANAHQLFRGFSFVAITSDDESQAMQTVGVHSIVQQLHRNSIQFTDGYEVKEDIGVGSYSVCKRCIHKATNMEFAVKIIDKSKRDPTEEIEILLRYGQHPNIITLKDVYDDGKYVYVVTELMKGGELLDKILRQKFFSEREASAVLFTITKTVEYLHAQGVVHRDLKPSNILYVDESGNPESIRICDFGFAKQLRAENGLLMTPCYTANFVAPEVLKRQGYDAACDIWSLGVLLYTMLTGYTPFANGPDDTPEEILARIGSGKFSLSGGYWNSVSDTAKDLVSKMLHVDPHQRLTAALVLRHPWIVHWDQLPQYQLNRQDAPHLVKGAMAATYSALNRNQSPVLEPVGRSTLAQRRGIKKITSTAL
Sequence of UniProt P27037 (whole entry, looked up): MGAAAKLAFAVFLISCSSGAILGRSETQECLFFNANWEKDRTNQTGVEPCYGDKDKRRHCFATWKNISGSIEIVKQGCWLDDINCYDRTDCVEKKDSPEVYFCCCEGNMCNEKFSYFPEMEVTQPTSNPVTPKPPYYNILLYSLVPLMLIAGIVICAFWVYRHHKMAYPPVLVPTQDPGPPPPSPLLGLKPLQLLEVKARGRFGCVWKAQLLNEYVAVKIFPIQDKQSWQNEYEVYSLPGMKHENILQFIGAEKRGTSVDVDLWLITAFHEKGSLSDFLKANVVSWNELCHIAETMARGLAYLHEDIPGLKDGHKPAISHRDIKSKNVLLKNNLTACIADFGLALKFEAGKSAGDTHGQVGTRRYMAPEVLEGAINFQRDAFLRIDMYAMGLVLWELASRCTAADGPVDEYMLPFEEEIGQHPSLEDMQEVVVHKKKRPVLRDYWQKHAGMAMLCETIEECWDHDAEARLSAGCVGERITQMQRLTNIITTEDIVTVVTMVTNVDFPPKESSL

Set 1
SMILES: O=C(NS(=O)(=O)c1ccc(NCC2CCOCC2)c([N+](=O)[O-])c1)c1ccc(N2CCN(Cc3ccc(C(F)(F)F)cc3-c3ccc(Cl)cc3)CC2)cc1Oc1cnc2[nH]ccc2c1
Read-out: cell-free assay
Method: competition with immobilised ligand
Concentration: 1 µM
target | remaining binding
Serine/threonine-protein kinase RIO3 (RIOK3, Homo sapiens, UniProt O14730) | 98%
Receptor-interacting serine/threonine-protein kinase 4 (RIPK4, Homo sapiens, UniProt P57078) | 75%
Activin receptor type-2A (ACVR2A, Homo sapiens, UniProt P27037) | 93%
cGMP-dependent protein kinase 2 (PRKG2, Homo sapiens, UniProt Q13237) | 100%
Wee1-like protein kinase 2 (WEE2, Homo sapiens, UniProt P0C1S8) | 100%
Epidermal growth factor receptor (EGFR, Homo sapiens, UniProt P00533, L858R/T790M) | 75%
Epidermal growth factor receptor (EGFR, Homo sapiens, UniProt P00533, A750P/del747-749) | 86%
Serine/threonine-protein kinase TNNI3K (TNNI3K, Homo sapiens, UniProt Q59H18) | 95%
Epidermal growth factor receptor (EGFR, Homo sapiens, UniProt P00533, del747-752/P753S) | 96%
Interferon-induced, double-stranded RNA-activated protein kinase (EIF2AK2, Homo sapiens, UniProt P19525) | 94%
Vascular endothelial growth factor receptor 2 (KDR, Homo sapiens, UniProt P35968) | 100%
Ribosomal protein S6 kinase alpha-3, C-terminal kinase domain (RPS6KA3, Homo sapiens, UniProt P51812) | 100%
Tyrosine-protein kinase ABL2 (ABL2, Homo sapiens, UniProt P42684) | 100%
Inhibitor of nuclear factor kappa-B kinase subunit epsilon (IKBKE, Homo sapiens, UniProt Q14164) | 65%

Set 2
Target: PABPC1L2, full length, GST fusion (mouse, UniProt A0ABA7IW68)
Method: RNAcompete
Molecule type: RNA
Sample: in vitro
Concentration: 20 nM
Setting: 7-mer, probes averaged, single round
Baseline: mean of 7-mers
Reading: higher = stronger binding
Target sequence (chain): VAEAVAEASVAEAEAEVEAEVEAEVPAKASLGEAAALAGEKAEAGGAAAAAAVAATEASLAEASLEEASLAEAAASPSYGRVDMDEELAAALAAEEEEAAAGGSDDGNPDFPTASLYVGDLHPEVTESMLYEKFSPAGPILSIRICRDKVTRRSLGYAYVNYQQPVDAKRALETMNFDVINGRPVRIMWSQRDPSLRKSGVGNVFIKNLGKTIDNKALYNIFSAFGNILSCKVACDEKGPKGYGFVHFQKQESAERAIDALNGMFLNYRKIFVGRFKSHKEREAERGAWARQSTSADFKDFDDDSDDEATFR
Sequence | 7-mer Z-score
GUCUCAU | -0.347
GACUCUG | -0.22
AUACCGG | -0.0881
AUGGCAA | 0.0279
GUAGUAC | -0.146
ACAUAGA | 0.131
GCUGUCU | -0.257
UCAGAUC | -0.164

Set 3
Target: RING finger protein unkempt homolog, zinc fingers 1-6, GST-SBP tag (UNK, Homo sapiens, UniProt Q9C0B0, residues 30-357)
Sequence of UniProt Q9C0B0 (30-357, looked up): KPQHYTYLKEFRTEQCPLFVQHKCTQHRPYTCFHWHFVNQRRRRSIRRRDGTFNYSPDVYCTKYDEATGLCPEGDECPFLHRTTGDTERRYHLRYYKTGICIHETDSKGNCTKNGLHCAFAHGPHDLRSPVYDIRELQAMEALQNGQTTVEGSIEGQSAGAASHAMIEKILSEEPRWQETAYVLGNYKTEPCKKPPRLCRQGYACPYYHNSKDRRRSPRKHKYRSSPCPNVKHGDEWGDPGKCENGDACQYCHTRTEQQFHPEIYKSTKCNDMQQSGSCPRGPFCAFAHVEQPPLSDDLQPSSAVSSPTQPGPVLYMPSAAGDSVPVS
Method: RNA Bind-n-Seq
Molecule type: RNA
Sample: in vitro
Concentration: not given
Setting: RNA with constant flanks, human-mouse chimeric sites, ends assumed
Baseline: input RNA pool
Reading: higher = stronger binding
All sequences stand within: GGGAGUUCUACAGUCCGACGAUC … CAACAGAGGAUUGAGCAUCA
Sequence | bound/input enrichment
UUAAUCCCCUUUACUGCUCCCCCACUUCUCAUGGUAAUAACAAAGUCUUAUAUCCCCGUCCUAGCUUUUACUCAGAUGGCUUAUGGAGCCGGUUUCCUAGCUUUCUUGGGUGGGAUCAGA | 0.756 ratio
GGUGGGGUGGUCAUUGCCGUUUGAGCUGCUGAUUUUCAUGAGUCGCCUUCAAAACUCUCGCAUAGGGUUGACAAUGUGGGGGGGUGGGGGAUCCAGCUAUUUUUUUUAUUUUCAAGUCCA | 2.93 ratio
UCUUAACUUAUUCAUUUCUUAUUUUUAUAUAGCUAGAUAAAUAUUGUUAGUCUUAGAGAGUAGUUCACAUUUUUUGAGAAGCAUGCCCUCCCUGUCCAUUUGUCUUAUAACAUGACCCAG | 55.5 ratio
GUAUUUGUGCGCUCCCCACUCGUGUUUUUAAGUGUAUUUUUAUAAGAUACAUGUAUUUGUAAUAGAUCUUUUGUUACAUAAUGCUGAAAUGCUACUGGAGAUUAUGAAAAAUGUUUCAAU | 0.412 ratio
AUAGAUGAAAUUGAUGUAGAUCAGGAAGGAAUUGCUGAAAUGAUGCUGGAUGAAAAUGCUAUUGCUCAGGUCCCACGCCCUGGCACAUCUUUGAAGCUCCCUGGCACUAACCAAACAGGA | 0.505 ratio
GUUGCCAGCUUCCGGUUCCGUUGGGCUCGGUUCUCUCCUGAGCUACGUGUCUCUACGUUUUAGGUGUGCCAUCCAACAAACAUGGAUGAUCAGGUAAAGUUUGUGGAGCCCAGCCGGCAG | 0.132 ratio
GUACUGCAACAGCAGGGAAAACUGCAGGAAGCUCUGAUGCAUUAUAAGGAGGCUAUUCGAAUCAGUCCUACCUUUGCUGAUGCCUACUCUAAUAUGGGAAACACUCUAAAGGAGAUGCAG | 0.165 ratio
CACAGAGCAGCACCUACCCCCUCCUCCUUUCCACACCUGCAAACCCUUUUGCCUGGGCUGAAUAUUUAGUGUAAUUACAUCUCAGCUUUGAGGGCUCCUGUGGCAAAUUCCCGGAUUAAA | 0.636 ratio

Set 4
Target: Myotonin-protein kinase (DMPK, Homo sapiens, UniProt Q09013)
Sequence of UniProt Q09013 (whole entry, looked up): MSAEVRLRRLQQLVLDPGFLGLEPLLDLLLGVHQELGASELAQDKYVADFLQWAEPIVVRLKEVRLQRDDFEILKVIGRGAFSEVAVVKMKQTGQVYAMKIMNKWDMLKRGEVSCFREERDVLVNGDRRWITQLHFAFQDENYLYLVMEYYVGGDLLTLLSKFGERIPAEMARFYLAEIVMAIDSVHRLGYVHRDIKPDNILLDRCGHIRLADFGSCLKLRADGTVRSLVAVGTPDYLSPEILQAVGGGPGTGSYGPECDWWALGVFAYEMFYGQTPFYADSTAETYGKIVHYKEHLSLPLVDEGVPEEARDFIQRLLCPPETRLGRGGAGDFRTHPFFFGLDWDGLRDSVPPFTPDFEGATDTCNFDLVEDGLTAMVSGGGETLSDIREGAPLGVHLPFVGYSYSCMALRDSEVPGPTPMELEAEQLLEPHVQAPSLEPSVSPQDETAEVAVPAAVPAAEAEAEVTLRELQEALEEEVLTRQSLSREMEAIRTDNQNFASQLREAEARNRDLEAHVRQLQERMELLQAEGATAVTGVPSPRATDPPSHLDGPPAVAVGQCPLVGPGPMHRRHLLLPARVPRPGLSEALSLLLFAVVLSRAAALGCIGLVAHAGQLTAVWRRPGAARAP
Read-out: enzyme activity
Action: inhibitor
Concentration: 0.5 µM
Baseline: control
SMILES | remaining activity [%]
OCC(O)CCON=C1C(c2c(O)[nH]c3ccccc23)=Nc2ccccc21 (stereo not drawn) | 99.5
COc1ccc(CNC(=O)Nc2ncc([N+](=O)[O-])s2)cc1 | 101
NCCNc1ncc(C(N)=O)c(Nc2cccc(C(F)(F)F)c2)n1 | 104
CCOC(=O)c1c(C)[nH]c(/C=C2\C(=O)Nc3ccccc32)c1C | 101
O=c1c2ccccc2[nH]c(=S)n1CCN1CCC(=C(c2ccc(F)cc2)c2ccc(F)cc2)CC1 | 108
O=C1NC(=O)C(c2cn(CCCn3ccnc3)c3ccccc23)=C1Nc1ccccc1 | 104
CC(C)[C@H](CO)Nc1nc(Nc2cc(N)cc(Cl)c2)c2ncn(C(C)C)c2n1 | 99.7
Cc1nc(-c2ccccc2)c(-c2ccncc2)o1 | 103
COc1cc2ncnc(Nc3ccc(F)c(Cl)c3)c2cc1OCCCN1CCOCC1 | 90.1
Nc1[nH]nc2nc3ccccc3nc12 | 98.4
CNC(=O)c1cc(Oc2ccc(NC(=O)Nc3ccc(Cl)c(C(F)(F)F)c3)cc2)ccn1 | 93.2
COc1cc2nccc(Oc3ccc(NC(=S)NC(=O)c4ccccc4C)cc3)c2cc1OC | 102
Oc1ccc(-c2nc(-c3ccncc3)c(-c3ccc(F)cc3)[nH]2)cc1 | 106
O=C1NC(=O)C(c2cn(CCCO)c3ncccc23)=C1c1cnccn1 | 99.6
Cn1sc(=O)n(Cc2ccccc2)c1=O | 100

Excerpt of the above (set 1):
target | remaining binding
Ribosomal protein S6 kinase alpha-3, C-terminal kinase domain (RPS6KA3, Homo sapiens, UniProt P51812) | 100%
Wee1-like protein kinase 2 (WEE2, Homo sapiens, UniProt P0C1S8) | 100%
Inhibitor of nuclear factor kappa-B kinase subunit epsilon (IKBKE, Homo sapiens, UniProt Q14164) | 65%
Vascular endothelial growth factor receptor 2 (KDR, Homo sapiens, UniProt P35968) | 100%
